Results gathered from unrelated publications.
Each numbered part is a random draw from the data of one study; scales do not carry over between parts.

Set 1
Target: Sal-like protein 4, full length isoform A (SALL4, Homo sapiens, UniProt Q9UJQ4, residues 1-1053)
Chain of UniProt Q9UJQ4 (whole entry, looked up): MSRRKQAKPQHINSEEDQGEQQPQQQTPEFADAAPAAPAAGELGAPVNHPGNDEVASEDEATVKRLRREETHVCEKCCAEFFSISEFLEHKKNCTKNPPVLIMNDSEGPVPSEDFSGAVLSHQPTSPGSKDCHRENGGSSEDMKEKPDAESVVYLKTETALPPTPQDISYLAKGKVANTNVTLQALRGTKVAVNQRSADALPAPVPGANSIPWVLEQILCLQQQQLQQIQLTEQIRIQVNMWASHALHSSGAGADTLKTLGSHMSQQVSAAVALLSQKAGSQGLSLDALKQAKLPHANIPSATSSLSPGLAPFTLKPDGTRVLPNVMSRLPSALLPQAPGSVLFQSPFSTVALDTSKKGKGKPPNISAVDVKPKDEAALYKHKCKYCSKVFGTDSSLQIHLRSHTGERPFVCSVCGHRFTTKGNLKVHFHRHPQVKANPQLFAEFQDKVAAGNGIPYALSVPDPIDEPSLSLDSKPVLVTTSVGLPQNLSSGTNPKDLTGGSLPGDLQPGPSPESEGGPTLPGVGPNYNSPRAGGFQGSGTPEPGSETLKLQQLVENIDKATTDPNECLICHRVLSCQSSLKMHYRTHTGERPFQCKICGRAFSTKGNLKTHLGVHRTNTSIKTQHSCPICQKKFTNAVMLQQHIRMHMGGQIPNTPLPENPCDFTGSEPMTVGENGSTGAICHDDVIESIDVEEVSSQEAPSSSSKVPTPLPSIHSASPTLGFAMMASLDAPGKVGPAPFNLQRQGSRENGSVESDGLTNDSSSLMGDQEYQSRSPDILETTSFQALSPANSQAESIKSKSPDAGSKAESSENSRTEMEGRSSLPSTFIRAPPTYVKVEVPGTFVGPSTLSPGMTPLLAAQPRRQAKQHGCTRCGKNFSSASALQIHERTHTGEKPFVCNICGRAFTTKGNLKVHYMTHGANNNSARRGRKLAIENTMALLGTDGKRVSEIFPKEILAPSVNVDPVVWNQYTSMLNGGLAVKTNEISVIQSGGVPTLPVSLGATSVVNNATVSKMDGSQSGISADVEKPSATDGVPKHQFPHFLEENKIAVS
Method: universal PBM
Form: double-stranded DNA, one strand shown
Medium: in vitro
Concentration: 600 nM
Setting: 8-mer, flanks averaged, mean of replicates
Direction: higher = stronger binding
Sequence	E-score
CTCTATAC	0.0535
GTGCTTTA	0.103
AATATTGT	0.409
GCGATTAC	-0.0716
CCGAGCGA	-0.14
ATCCGGGG	-0.135
CGAGGGAG	-0.162
AACGCAAA	0.113
ATGGGAAC	-0.00788
CCGGATCG	-0.316
GGTTCAGA	-0.0817
AGACTTGA	0.0519
CACGCGGG	-0.271
CAAGTTGC	-0.0474
CCGGCCTC	-0.343
CCCAATGA	-0.0405
ACAAGAGA	0.00451
CGATGCAG	-0.135
ACGGACGT	-0.13
CTCCCAGC	-0.266

Set 2
Target: RNA binding protein fox-1 homolog 2, RRM domain, GST-SBP tag (RBFOX2, Homo sapiens, UniProt O43251-10, residues 100-194)
Method: RNA Bind-n-Seq
Form: RNA
Medium: in vitro
Concentration: 365 nM
Setting: natural RNA segment, single round, ends assumed
Relative to: no-protein control
Direction: higher = stronger binding
Residues (chain): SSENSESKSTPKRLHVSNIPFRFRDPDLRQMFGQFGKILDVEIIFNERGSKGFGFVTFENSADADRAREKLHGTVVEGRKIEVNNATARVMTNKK
Sequence	RBNS enrichment (R)
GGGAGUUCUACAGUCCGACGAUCUUGGUUUCUGAUGAUUUAUAAGUAACUACAAAAGAAAGAGACCUGUUCUUGAACAGAUACUAUGUCUAUAACUCAGAUCGCACCAAACUUCCUGUGGUGACAGACUCUUCUGGAAUUCUCGGGUGCCAA	0.252
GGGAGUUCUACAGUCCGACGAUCUCUGUUCUCACAGCCUCUGAGAUGUCUCAGGUGAGAGCCAUGGGGUGGAACCAUAAAGUCCCCAUCUCAAAGUGUGCCUGUGGGACAGGGUUAGUAGCUACUCCCCGAGGUGGAAUUCUCGGGUGCCAA	0.437
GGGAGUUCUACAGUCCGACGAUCGUGGGUGGAUAUCUGCCUUCCUGCUGCAAGUGGAGGCAGGUCCAGCAGCCCCUCUUCAGAGCCCCUGUAAAUGCUAUCGCAGCCUGAGUCCUGCCGCCUUCCAGUUCCUUUGGAAUUCUCGGGUGCCAA	0.329
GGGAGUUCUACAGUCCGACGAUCGGUACCGUAGAGUGGAAAUGAUCUUCAAUAAUAACAGUAGUGACUUUUGGAUGCUUUGUUGCUGGUAUGACUCUUGAGGUGUCCUGAUUUGUGUCCAGUUUUUGAACCUCUGGAAUUCUCGGGUGCCAA	2.02
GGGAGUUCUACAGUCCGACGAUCUAAGGGAUAUUGGGAAAAGUUUUGGUGUGUUUCUGUUGAUUUCUUUUUUGUAUGCUGUGAUAAAAGAGAAAUGAAAAGUGCCAGUCACUGUGUGGUGUCUAGGAAAAUCAUGGAAUUCUCGGGUGCCAA	1.85
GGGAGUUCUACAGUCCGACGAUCUAAAGCCCCCAUUCAUACAAACAAGCAGUAAACAGCCUACCCUGGAAAUACCCCUAGUCCCCAAAGUUCACUUCUAGCUGCAGGUAGACAAUGAGUAACUGGUCUACUGAUGGAAUUCUCGGGUGCCAA	0.498
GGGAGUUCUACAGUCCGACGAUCCAAGAACAGUCAGUUAGCCCUGCUGUCUUGACUAUGUUGUUUUUAAUCACUGUGACCUCUGAAUUUUCAAGUAUAGGCCAAAUGAGCCAAGUAACUUGGCUGUGAAAUGGUGGAAUUCUCGGGUGCCAA	0.437
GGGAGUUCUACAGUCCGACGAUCCUCUCUGAGCAGAGGAGCAGGAAUCCCUCAAGCAGCAGCCUGGUCUUGGCUGGUGGGCAGAUGCAAAUAGCUUUUGCUGUUAUUAAUGAAGUAAUUACUAAAUGCACUUAUGGAAUUCUCGGGUGCCAA	0.339
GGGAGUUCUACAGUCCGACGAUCACACAGCUAUCAUAGAAAAGAAACUUGCCUCAUGUAAACUGGAUUGAGAAAUUCUCAGUGAUUCUGCAAUGGAUUUUUUUUUAAUGCAGAAGUAAUGUAUACUCUAGUAUUGGAAUUCUCGGGUGCCAA	0.562

Set 3
Target: Centromere-binding protein 1, full length, N-terminal tag (CBF1, Saccharomyces cerevisiae, UniProt P17106, residues 1-351)
Chain of UniProt P17106 (whole entry, looked up): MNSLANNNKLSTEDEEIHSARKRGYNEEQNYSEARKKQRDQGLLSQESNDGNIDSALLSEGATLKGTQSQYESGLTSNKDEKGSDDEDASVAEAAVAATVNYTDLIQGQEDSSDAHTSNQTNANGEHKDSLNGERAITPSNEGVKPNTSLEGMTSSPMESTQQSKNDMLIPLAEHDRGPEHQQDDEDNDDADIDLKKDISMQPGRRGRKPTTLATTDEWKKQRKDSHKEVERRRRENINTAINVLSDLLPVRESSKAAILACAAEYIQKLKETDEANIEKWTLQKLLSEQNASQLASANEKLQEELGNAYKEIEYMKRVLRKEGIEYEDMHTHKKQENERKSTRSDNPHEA
Method: protein-binding microarray
Form: double-stranded DNA, one strand shown
Medium: in vitro
Concentration: 0.8 µM
Setting: whole 60-bp probe, no competitor
Direction: higher = stronger binding
Sequence	fluorescence intensity
CTACGCCAACCAAGCCTTACCCTAACCTTATACTTCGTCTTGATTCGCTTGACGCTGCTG	487 a.u.
CTATCGAGAATTCGTGATTCAATGTTCATTATTTTCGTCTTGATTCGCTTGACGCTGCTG	505 a.u.
CTATCTAGAAAAATTCACATGCTGATTCATTTATTCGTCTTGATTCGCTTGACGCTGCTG	650 a.u.
GAAGCCTACATACCTCACGATATGATGAATAAATAGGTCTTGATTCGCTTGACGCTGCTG	571 a.u.
GAACAACATGCAAGTCACGAAATGACGAATGAATAGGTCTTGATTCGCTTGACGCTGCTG	600 a.u.
GAACAACTTCCCGGTGACGAGAAAAAGAAACGTTAGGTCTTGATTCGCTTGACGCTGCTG	547 a.u.
CTAATCAATGAATGACATCAGATAAAACGAAAGTTCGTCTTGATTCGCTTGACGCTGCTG	552 a.u.
CTAAAGCGCAAACAGGGCATGATGCAGTTGAATTTCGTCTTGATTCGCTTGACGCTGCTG	493 a.u.
GAAATTTTTGCTACACACGTTTATCCATTGAATTAGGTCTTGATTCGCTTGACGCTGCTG	580 a.u.
CTAAAAATAAAACCTCATATGATTTACTTTATTTTCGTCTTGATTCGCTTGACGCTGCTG	514 a.u.
CTAAATCACTCCCCCCACGTTTTTTTATCCAGTTTCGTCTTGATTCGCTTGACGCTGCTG	601 a.u.
CCTAACTACTATAAGCACGATCAATAGCTTCGTACAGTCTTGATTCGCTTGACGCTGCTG	535 a.u.
CCTAACTACTATACACACGAGAGATAGCTTCGTACAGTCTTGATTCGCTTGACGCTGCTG	504 a.u.
TGTACGAAGCTATGTCTCCTGTTTATAGTAGTTAGGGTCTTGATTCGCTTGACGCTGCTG	531 a.u.
CTAGGATACGCAACTGATGTTGTATAGAAATTTTTCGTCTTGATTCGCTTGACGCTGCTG	510 a.u.
GAACAGAAAAGTTTCCACATGATATTTATTAGCTAGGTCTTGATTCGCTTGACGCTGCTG	1030 a.u.
CCTAACTACTATAATCATCAGCGATAGCTTCGTACAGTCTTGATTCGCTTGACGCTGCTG	533 a.u.
CTAGAACTCTTTGATCATGTGATATGAATATGTTTCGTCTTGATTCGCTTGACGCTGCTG	8640 a.u.
CTAGTCACGGTCCACCACCAATTGTGGCCTTGTTTCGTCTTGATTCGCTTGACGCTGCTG	642 a.u.
TGTACGAAGCTATTACAGGAGATTATAGTAGTTAGGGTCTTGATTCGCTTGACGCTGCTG	499 a.u.
CCTAACTACTATAATCATCACTTATAGCTTCGTACAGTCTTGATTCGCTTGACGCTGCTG	533 a.u.
CTAGAACCTAGCAAGGACGTCACCTGGACTCCTTTCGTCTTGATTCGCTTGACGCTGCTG	858 a.u.
CTAATAACAGGACACTACATCAGAGATAATCTTTTCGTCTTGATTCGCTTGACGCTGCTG	485 a.u.

Set 4
Target: Interferon regulatory factor 3, full length, phosphomimetic (IRF3, Homo sapiens, UniProt Q14653, residues 1-427, S386D/S396D/S398D/S402D/T404D/S405D)
Chain of UniProt Q14653 (whole entry, unmodified, looked up): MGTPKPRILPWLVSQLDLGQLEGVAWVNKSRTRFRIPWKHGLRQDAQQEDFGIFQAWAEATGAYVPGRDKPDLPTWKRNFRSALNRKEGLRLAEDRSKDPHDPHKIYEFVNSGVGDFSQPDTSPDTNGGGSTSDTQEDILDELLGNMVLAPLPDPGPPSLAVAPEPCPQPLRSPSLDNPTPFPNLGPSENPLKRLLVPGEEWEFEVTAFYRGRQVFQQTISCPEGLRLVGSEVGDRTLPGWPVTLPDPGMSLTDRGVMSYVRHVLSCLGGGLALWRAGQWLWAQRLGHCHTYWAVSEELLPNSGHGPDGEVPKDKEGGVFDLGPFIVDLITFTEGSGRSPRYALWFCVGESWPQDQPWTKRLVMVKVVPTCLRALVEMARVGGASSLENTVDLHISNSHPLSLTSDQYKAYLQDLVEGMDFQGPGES
Method: protein-binding microarray
Form: double-stranded DNA, one strand shown
Medium: in vitro
Concentration: 2540 nM top
Setting: 60-bp whole probe
Together with: salmon DNA 0.4 mg/ml
Relative to: random background probes
Direction: higher = stronger binding
Shared flanks, not repeated: GCCTAGCAC … GTCTTGATTCGCTTGACGCTGCTG
Sequence	fitted relative affinity
TGAGGTCTCGGTTTCGGTTAGTGCTAG	5.36 z-score
TCATTTTGTGTTTTCATACTGTGCTAG	2.15 z-score
CTTTAACTCATTCTCTGTTTGTGCTAG	1.73 z-score
TCAGCTGTTTTTCTCACACTGTGCTAG	0.906 z-score
TATGTTCCCTATTTAAGGCAGTGCTAG	3.69 z-score
CTAGGTTTCGGACTGGGTTAGTGCTAG	4.26 z-score
GACGGACTGCGTTTCCTGACGTGCTAG	0.305 z-score
TCATATATACAAACTAAGACTGTGCTA	0.721 z-score
TCACATCTCCAGTAGCCTACTGTGCTA	1.18 z-score
GACGGTCTCCTTATCCTAACGTGCTAG	2.99 z-score
ATAGATATCAGTTTCGATTAGTGCTAG	4.92 z-score
TTAGGTCTCAGTCTCGATTAGTGCTAG	1.2 z-score
TTAGGTATCCTTCGCCTTTAGTGCTAG	1.12 z-score
GACGGTATCCCTATCCTGACGTGCTAG	4.18 z-score
GACGGACTAGGTATCGGGACGTGCTAG	0.385 z-score
GACGGTTCCGGGACTGGGGACGTGCTA	1.06 z-score
TTAGCTTTCGGACTGGGTTAGTGCTAG	1.5 z-score
GACGGTCTCCTCTTCCTGACGTGCTAG	0.921 z-score
CACCACATTTTTTTCATTATGTGCTAG	0.759 z-score
TCACCTATAGGGCCTGACACTGTGCTA	0.0865 z-score
GACGGACTGCTACTGCTAACGTGCTAG	-0.635 z-score
TAAGATTTCGGGACTGGATTAGTGCTA	1.32 z-score
TTAGGTTCCGGTTTCGGTAAGTGCTAG	7.24 z-score
TTAGGTTTCCGTTCCGGTTAGTGCTAG	9.09 z-score
TTAGGTTTTGGGTATCGGTTAGTGCTA	1.38 z-score

Some of these lines once more (set 3):
Sequence	fluorescence intensity
CTAAATCACTCCCCCCACGTTTTTTTATCCAGTTTCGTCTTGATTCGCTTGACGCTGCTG	601 a.u.
CCTAACTACTATACACACGAGAGATAGCTTCGTACAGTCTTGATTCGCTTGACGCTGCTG	504 a.u.
CCTAACTACTATAATCATCACTTATAGCTTCGTACAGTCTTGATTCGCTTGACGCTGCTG	533 a.u.
GAAATTTTTGCTACACACGTTTATCCATTGAATTAGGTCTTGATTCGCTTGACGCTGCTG	580 a.u.
TGTACGAAGCTATGTCTCCTGTTTATAGTAGTTAGGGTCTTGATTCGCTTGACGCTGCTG	531 a.u.
CCTAACTACTATAATCATCAGCGATAGCTTCGTACAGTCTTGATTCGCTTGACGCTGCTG	533 a.u.
